# Published values from different studies.
# Lines come from different studies, so protocols differ. ± gives the spread as reported.
# UniProt P20813, sequence (whole entry, looked up): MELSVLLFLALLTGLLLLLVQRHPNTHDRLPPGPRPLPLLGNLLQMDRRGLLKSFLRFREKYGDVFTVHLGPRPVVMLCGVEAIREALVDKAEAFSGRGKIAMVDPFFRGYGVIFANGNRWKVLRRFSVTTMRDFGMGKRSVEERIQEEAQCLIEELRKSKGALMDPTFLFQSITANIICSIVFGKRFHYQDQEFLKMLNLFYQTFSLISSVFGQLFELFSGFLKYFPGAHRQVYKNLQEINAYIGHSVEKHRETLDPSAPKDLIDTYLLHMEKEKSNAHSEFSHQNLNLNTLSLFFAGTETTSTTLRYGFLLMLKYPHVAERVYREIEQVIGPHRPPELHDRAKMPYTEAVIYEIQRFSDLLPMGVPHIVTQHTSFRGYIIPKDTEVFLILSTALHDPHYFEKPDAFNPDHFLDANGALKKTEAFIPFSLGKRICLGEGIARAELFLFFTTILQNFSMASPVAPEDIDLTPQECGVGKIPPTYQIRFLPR
# UniProt Q9CPV9, sequence (whole entry, looked up): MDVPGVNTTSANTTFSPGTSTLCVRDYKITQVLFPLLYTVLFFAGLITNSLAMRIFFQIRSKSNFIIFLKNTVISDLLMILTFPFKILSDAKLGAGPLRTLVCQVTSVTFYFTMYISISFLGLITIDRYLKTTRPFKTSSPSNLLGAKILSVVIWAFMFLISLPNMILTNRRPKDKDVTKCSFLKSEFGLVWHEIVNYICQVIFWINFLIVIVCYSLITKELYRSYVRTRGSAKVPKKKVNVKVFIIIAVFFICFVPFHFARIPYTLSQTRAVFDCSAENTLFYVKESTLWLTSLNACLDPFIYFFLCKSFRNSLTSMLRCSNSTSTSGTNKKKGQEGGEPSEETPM
Structure (SMILES),target or system,assay,test system,conditions,endpoint,result
COc1ccc(CNc2nc(N3CCC[C@H]3CO)ncc2C(=O)NNC(=O)c2cnc(N3CCC[C@H]3CO)nc2NCc2ccc(OC)c(Cl)c2)cc1Cl,Salmonella typhimurium,Ames test,"TA98, TA100, TA1535, TA102, TA97a","62.5 to 1000 µg/plate, with and without S9",mutagenicity,negative
N#Cc1cc(C(=O)OCC[18F])c(C(F)(F)F)nc1N1CCN(C(=O)Cc2ccccc2)CC1,"P2Y purinoceptor 12 (P2ry12, Mus musculus, UniProt Q9CPV9)",PET,"young mouse, 6 weeks, brain","11.1 MBq, 1.25 min",peak SUV,2.01 ± 0.31
CC(C)[C@H](NC(=O)CNC(=O)[C@H](CCC(N)=O)NC(=O)[C@H](C)N)C(=O)O,,,"human, both sexes, plasma","intravenous infusion, 90 mg/kg/h, 2 h infusion, geometric mean",clearance,433 mL/min/kg
CC(=O)OC[C@H]1O[C@@H](Sc2sc(C(=O)c3ccc(C)cc3)c(N)c2-c2nc3ccccc3s2)[C@H](OC(C)=O)[C@@H](OC(C)=O)[C@@H]1OC(C)=O,BGM,cytotoxicity,,72 h,maximum non-toxic concentration,90 µg/mL
COc1cc2c(CCNC(C)=O)c[nH]c2cc1OS(=O)(=O)O,Abcg2 (mouse),,FVB/N wild-type male mice,"oral, 10 mg/kg melatonin, 1 h",plasma concentration,3.39 ± 1.11 ng/mL
[64Cu+2].c1ccc(CNCc2ccc(CN3CCCN4CCNCCCN(CC4)CC3)cc2)nc1,CXCR4,,"NOD/SCID mouse, U87 and U87-stb-CXCR4 xenografts, heart","iv, 90 min, ex vivo, added: AMD3465 25 mg/kg sc before tracer",tissue uptake,1.42 ± 0.04 %ID/g
N#C[C@@H]1CCCN1C(=O)CNC(=O)c1ccnc2ccc(OCCCN3CCN(C(=O)CCc4ccc5c(c4)CN4CCN(Cc6cc(CCC(=O)O)ccc6O)CC(=O)[O][Al-]([18F])([O]C(=O)C4)[O]5)CC3)cc12 (stereo partly shown),U-87 MG tumour model,,"host not given, tumour","1 h, tumour-bearing",tracer uptake,17.5 %ID/g
CCCCCCCCCCCCCCCC[n+]1ccn(Cc2ccccc2)c1C,Trypanosoma cruzi,"parasite growth, imaging",U2OS,"72 h, intracellular, amastigote",EC50,560 nM
Nc1c(C(=O)c2ccc(Cl)cc2)sc(S)c1-c1nc2ccccc2s1,FRhK-4,,,72 h,non-toxic concentration,80 µg/mL
[64Cu+2].c1cnc(CNCc2ccc(CN3CCCN4CCNCCCN(CC4)CC3)cc2)nc1,CXCR4,,"NOD/SCID mouse, U87 and U87-stb-CXCR4 xenografts, kidney","iv, 60 min, ex vivo",tissue uptake,31.1 ± 2.62 %ID/g
CCCCCCCCCCCC(=O)NCCC(=O)N[C@H](CCCNC(=N)N)C(=O)N[C@H](CCCNC(=N)N)C(=O)N[C@H](CCCNC(=N)N)C(=O)N[C@H](CCCNC(=N)N)C(=O)N[C@H](CCCNC(=N)N)C(=O)N[C@@H](CCCNC(=N)N)C(=O)N[C@@H](CCCNC(=N)N)C(=O)N[C@@H](CCCNC(=N)N)C(=O)N[C@@H](CCCNC(=N)N)C(=O)N[C@@H](CCCCNC(=S)Nc1ccc2c(c1)C(=O)OC21c2ccc(O)cc2Oc2cc(O)ccc21)C(N)=O,Jurkat,"RP-HPLC fluorescence, refers to: Arg peptide metabolite",culture medium,6 h,peak area,56.2%
CC(=O)O[C@@H]1[C@@H](OC(C)=O)[C@H](Sc2sc(C(=O)c3ccc(Br)cc3)c(N)c2-c2nc3ccccc3s2)OC[C@H]1OC(C)=O,FRhK-4,,,72 h,non-toxic concentration,100 µg/mL
C=CC(=O)Nc1cc(Nc2nccc(-c3cn(C)c4ccccc34)n2)c(OCC(F)(F)F)nc1N(C)CCN(C)C,"Cytochrome P450 2B6 (CYP2B6, Homo sapiens, UniProt P20813)","enzyme activity, inhibitor","human, liver microsomes",1 µM,activity vs control,95.2%

# Repeated from above:
Structure (SMILES),target or system,assay,test system,conditions,endpoint,result
Nc1c(C(=O)c2ccc(Cl)cc2)sc(S)c1-c1nc2ccccc2s1,FRhK-4,,,72 h,non-toxic concentration,80 µg/mL
